Measurements of several laboratories.
Each numbered part is a random draw from the data of one study; scales do not carry over between parts.

Study 1
Target: TAR DNA-binding protein 43, full length, His tag (TARDBP, Homo sapiens, UniProt Q13148, residues 1-414)
Method: RNA Bind-n-Seq
Molecule type: RNA
Medium: in vitro
Tested at: 20 nM
Notes: 6-mer, flanks averaged, single round
With: 150 mM LiCl
Baseline: input library
Direction: higher = stronger binding
Strand	6-mer enrichment (R)
CCAUAU	0.951
GUUGUG	1.7
GAGACU	0.902
GCAAUC	0.843
GUCUAC	0.852
UAACCG	0.836
CUGUCU	0.921
CCGCUA	0.902
AGUCGU	0.937
CAACGA	0.776
GACUAU	0.889
AGAACG	0.917
UCCCCC	1.32
AAAACU	0.852
CACGAC	0.791
ACAGUA	0.864
UCGCGG	0.983
GUGGCU	1.11
GCUUGG	1.1
UACGGU	0.921

Study 2
Target: Histone acetyltransferase KAT6A, both winged helices, GST fusion (KAT6A, Homo sapiens, UniProt Q92794, residues 1-181)
Method: protein binding microarray
Molecule type: double-stranded DNA, one strand shown
Medium: in vitro
Tested at: not given
Notes: 8-mer, flanks averaged, mean of 2 arrays, mostly near background
Baseline: not given
Direction: higher = stronger binding
Target sequence (chain): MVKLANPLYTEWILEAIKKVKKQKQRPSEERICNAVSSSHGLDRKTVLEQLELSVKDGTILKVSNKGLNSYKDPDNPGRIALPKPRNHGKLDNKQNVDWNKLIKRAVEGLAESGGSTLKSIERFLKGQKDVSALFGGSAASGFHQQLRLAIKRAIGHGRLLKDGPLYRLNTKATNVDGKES
Strand	E-score
CGAAGTAA	-0.0737
ATGCGGAG	-0.00234
ACATGGCG	0.123
ATTGGTCA	-0.192
CCACATCC	-0.143
CTAACAAG	-0.0418
AAATCCAG	-0.236
AATATACA	-0.0877
ACGATGCG	0.161
ATGACTTA	-0.122
CTGACAAG	-0.0409
GATGTCGC	0.217
ATGACCTA	-0.0475
AAATCGCA	0.00513
TGCGAGAA	0.0185
CGTCCACA	0.0654
TATTCTGA	-0.0559
TGAGAACA	-0.0622
AAGAGTAC	-0.0912

Study 3
Target: Interferon regulatory factor 7, full length, phosphomimetic (IRF7, Homo sapiens, UniProt Q92985, residues 1-503, S101K/S471D/S472D/S475D/S476D/S477D/S483D/S484D/S487D)
Chain of UniProt Q92985 (whole entry, unmodified, looked up): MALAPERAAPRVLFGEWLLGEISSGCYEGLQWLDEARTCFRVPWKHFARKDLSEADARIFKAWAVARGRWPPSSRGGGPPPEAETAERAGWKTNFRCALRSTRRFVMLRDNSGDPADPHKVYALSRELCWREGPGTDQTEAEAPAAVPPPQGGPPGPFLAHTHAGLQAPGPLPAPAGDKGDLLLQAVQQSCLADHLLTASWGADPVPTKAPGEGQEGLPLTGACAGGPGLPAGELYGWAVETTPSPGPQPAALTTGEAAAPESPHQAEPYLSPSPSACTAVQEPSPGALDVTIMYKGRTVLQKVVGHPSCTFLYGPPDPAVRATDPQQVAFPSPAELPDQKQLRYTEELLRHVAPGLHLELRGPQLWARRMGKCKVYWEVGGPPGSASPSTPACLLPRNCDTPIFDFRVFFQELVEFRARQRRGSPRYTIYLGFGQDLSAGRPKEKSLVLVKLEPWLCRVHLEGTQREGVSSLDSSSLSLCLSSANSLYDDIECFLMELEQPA
Method: protein-binding microarray
Molecule type: double-stranded DNA, one strand shown
Medium: in vitro
Tested at: 250 nM
Notes: 60-bp whole probe
With: salmon DNA 0.4 mg/ml
Baseline: random background probes
Direction: higher = stronger binding
All sequences stand within: GCCTAGCAC … GTCTTGATTCGCTTGACGCTGCTG
Strand	log fluorescence [z-score]
TTAGCACTGGGGACTGGGTTAGTGCTA	-0.654
GACGGACTAGGGTTTCGGGACGTGCTA	1.42
GACGTACTGGGGTATCGGGACGTGCTA	0.0915
GACGGTATCGGACTGGGGCCGTGCTAG	-0.201
GACCATTCCAGTTTCGAGACGTGCTAG	5.04
GACGGACTGCGACTGGGGACGTGCTAG	-0.48
GACGGTTTCCTTATCCTGACGTGCTAG	3.2
TTCATTTTCTTTAACTCATTGTGCTAG	1.21
CTGAGGCTGTGTTTTCACTTTGTGCTA	-0.15
GACGGACTGGGTTTCGAGACGTGCTAG	2.49
TCACTTTGGCCTCTAGGACTGTGCTAG	0.344
ACCCATTGAGATTTTCATTATGTGCTA	-0.0959
TTAGAACTGGGGACTGGACTAGTGCTA	-0.636
TTTGCTTTCCTTTGCTTTCTGTGCTAG	0.933
GACGGTATCGGACTGTGGACGTGCTAG	-0.103
GACGCTTTCAGTTCCGAGACGTGCTAG	1.13
GACGAATTGGGGACTGGAGACGTGCTA	-0.52
TTAGGTCTCATTTTCCTTTAGTGCTAG	2.66
TTAGGTTTCGACATTGGGTTAGTGCTA	6.66

Study 4
Target: Ras GTPase-activating protein-binding protein 1, C-terminal RGG region (G3BP1, Homo sapiens, UniProt Q13283)
Chain of UniProt Q13283 (whole entry, looked up): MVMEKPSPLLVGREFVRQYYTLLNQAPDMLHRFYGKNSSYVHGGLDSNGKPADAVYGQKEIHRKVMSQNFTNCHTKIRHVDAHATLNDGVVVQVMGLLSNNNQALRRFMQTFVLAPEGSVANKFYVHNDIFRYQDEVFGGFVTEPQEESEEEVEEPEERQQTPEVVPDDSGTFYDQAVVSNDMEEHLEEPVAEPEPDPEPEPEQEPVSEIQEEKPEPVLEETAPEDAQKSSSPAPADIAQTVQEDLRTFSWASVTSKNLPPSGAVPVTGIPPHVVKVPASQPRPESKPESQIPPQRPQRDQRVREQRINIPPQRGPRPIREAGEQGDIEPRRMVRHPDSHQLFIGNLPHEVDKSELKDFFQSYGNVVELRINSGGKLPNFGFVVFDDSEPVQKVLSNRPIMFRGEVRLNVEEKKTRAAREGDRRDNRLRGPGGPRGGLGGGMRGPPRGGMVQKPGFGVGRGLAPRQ
Method: RNA Bind-n-Seq
Molecule type: RNA
Medium: in vitro
Tested at: 1 µM
Notes: whole 134-nt RNA, ends assumed
With: 150 mM KCl
Baseline: input library
Direction: higher = stronger binding
Strand	log2 enrichment
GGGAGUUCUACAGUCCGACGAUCCCUGUGCUACACAUCGUAUGUACCGAAUCGGGGAAAAAGGGGUUUGGGGAAAAAAAGGGGAAAGUAUUAUGUUACGCCGUUCGGAUCUGCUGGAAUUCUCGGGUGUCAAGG	0.147
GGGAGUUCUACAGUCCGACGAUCCCUGUGCUACACAUCGUAUGUACCGAAUCGGGUUUUUUUGGGAAAAAAAGGGUUUUUGGGAAAGUAUUAUGUUACGCCGUUCGGAUCUGCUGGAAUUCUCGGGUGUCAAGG	-1.97
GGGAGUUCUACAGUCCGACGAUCCCUCAAGUCCUGUGCUACACAUCGUAUGUACCGAAUCGGUUUGGUUUGGUGGAAAGUAUUAUGUUACGCCGUUCGGAUCUGCACUUCCAGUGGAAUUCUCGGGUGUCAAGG	-1.23
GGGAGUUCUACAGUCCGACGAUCCUCAAGUCCUGUGCUACACAUCGUAUGUACCGAAUCGGUUUGGGUUUGGUUUGGAAAGUAUUAUGUUACGCCGUUCGGAUCUGCACUUCCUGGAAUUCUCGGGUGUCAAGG	-0.923
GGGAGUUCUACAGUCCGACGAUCUUCAGUUGGAUGGAUUUAUUGCUCGAAACUGGGCCAAUCAAAGAUCAGCUUUGGGAAGUGCUCUUGAUCCACUUGCUGAUAAAAUACUUAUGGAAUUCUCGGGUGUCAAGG	-1.52
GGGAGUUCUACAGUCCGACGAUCCCUCAAGUCCUGUGCUACACAUCGUAUGUACCGAAUCGGAGGAGGGGAGGGGAAAGUAUUAUGUUACGCCGUUCGGAUCUGCACUUCCAGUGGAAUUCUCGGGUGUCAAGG	-0.598
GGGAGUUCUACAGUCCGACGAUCAGUCCUGUGCUACACAUCGUAUGUACCGAAUCGGGAAAAAGGGUGGGAAAAAAAGGGAAAGUAUUAUGUUACGCCGUUCGGAUCUGCACUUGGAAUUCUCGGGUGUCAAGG	0.0861
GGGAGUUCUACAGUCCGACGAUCCAAGUCCUGUGCUACACAUCGUAUGUACCGAAUCGGGUUUGGGUUUGGGUUUGGGGAAAGUAUUAUGUUACGCCGUUCGGAUCUGCACUUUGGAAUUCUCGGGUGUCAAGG	2.59
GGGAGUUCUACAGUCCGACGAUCUGGGAGGUGGAUUUUGUUUAUUUUUUUAGCUCAUUUCCAGGGGUGGGAAUUUAUUUUUAAUAUGUGUCAUGAAUAAAGUUGUUUUUGAAAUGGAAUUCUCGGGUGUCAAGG	3.8

Excerpt of the above (study 2):
Strand	E-score
CCACATCC	-0.143
AAATCCAG	-0.236
ACGATGCG	0.161
TGAGAACA	-0.0622
AAGAGTAC	-0.0912
ATTGGTCA	-0.192
TATTCTGA	-0.0559
ATGACTTA	-0.122
